Measured values pooled from the literature.
Lines come from different studies, so protocols differ. “And” joins repeats or separate records; there may be more than shown.
Cell line: NCI-H322M

SMILES	effect on	method	concentration	setting	baseline	measurement	value
CCCCCCCCCCCCCCCCCCOc1cccc(CC(=O)OCC[N+]2(C)CCCCC2)c1		SRB	10 µM			growth inhibition	< 0%
Cn1cncc1C1=CN(c2ncnc3[nH]cnc23)CCS1				lung cancer		GI50	10.2 µM
Cc1cc(-c2ccccc2)n(-c2nc(-c3ccc(Cl)cc3)c3c(NC(=O)c4ccccc4)nnc-3[nH]2)n1		SRB	10 µM	NCI60 single-dose screen	untreated	cell growth	80.3%
CCN(CC)c1ccc(C=NNC(=O)CSc2nc3ccccc3c(=O)n2Cc2ccc(S(N)(=O)=O)cc2)c(O)c1		NCI five-dose screen				TGI	> 100 µM
CCCCCCCCCCCCCCCCCCOc1cccc(CC(=O)OCC[N+]2(C)CCCC2)c1		SRB	10 µM			growth inhibition	< 0%
S=C([S][Au-][P+](CCCCCC[P+]([Au-][S]C(=S)n1cccn1)(c1ccccc1)c1ccccc1)(c1ccccc1)c1ccccc1)n1cccn1	cell growth	NCI-60 screen		non-small cell lung cancer		log10 TGI	> -4
CCCCCCCCCCCCCCCCCCOCC(COP(=O)([O-])OCC[N+](C)(C)C)OC (centres unmarked)		SRB	10 µM			growth inhibition	< 0%
Cc1n(Cc2ccc3ccccc3c2)c2ccccc2[n+]1Cc1ccc2ccccc2c1.[Br-]		NCI60 five-dose				TGI	3 µM
Cc1n[nH]c2nc(-c3ccc(Cl)cc3)c3c(NC(=O)c4ccccc4)nnc-3n12		SRB	10 µM	NCI60 single-dose screen	untreated	cell growth	108%
Cc1cc2c(cc1C)[n+](Cc1ccc3ccccc3c1)cn2Cc1ccc2ccccc2c1.[Br-]		NCI60 five-dose				TGI	2.42 µM
O=C(Nc1nnc2[nH]c(=S)[nH]c(-c3ccc(Cl)cc3)c1-2)c1ccccc1		SRB	10 µM	NCI60 single-dose screen	untreated	cell growth	101%
CCCCc1n(Cc2ccc3ccccc3c2)c2ccccc2[n+]1Cc1ccc2ccccc2c1.[Br-]		NCI60 five-dose				TGI	2.57 µM
O=C(Nc1nnc2n3c(Cc4ccccc4)n[nH]c3nc(-c3ccc(Cl)cc3)c1-2)c1ccccc1		SRB	10 µM	NCI60 single-dose screen	untreated	cell growth	101%
C#C[C@@]1(O)[C@@H](CO)O[C@@H](n2cc(Br)c3c(N)ncnc32)[C@@H]1O		SRB		NCI-60 screen		TGI	4.74 µM and 5.41 µM

Excerpt of the above:
SMILES	effect on	method	concentration	setting	baseline	measurement	value
CCCCCCCCCCCCCCCCCCOCC(COP(=O)([O-])OCC[N+](C)(C)C)OC (centres unmarked)		SRB	10 µM			growth inhibition	< 0%
Cn1cncc1C1=CN(c2ncnc3[nH]cnc23)CCS1				lung cancer		GI50	10.2 µM
